Measurements of several laboratories.
Every numbered part comes from another study and shows a few of its results, in no order. Positions count from the first letter of the parent shown.
UniProt P63146, sequence (whole entry, looked up): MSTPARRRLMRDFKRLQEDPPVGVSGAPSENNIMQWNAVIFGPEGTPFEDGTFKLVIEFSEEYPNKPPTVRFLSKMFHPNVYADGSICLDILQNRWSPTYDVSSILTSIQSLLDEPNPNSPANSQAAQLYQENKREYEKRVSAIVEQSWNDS
UniProt Q9NR09, sequence (whole entry, looked up): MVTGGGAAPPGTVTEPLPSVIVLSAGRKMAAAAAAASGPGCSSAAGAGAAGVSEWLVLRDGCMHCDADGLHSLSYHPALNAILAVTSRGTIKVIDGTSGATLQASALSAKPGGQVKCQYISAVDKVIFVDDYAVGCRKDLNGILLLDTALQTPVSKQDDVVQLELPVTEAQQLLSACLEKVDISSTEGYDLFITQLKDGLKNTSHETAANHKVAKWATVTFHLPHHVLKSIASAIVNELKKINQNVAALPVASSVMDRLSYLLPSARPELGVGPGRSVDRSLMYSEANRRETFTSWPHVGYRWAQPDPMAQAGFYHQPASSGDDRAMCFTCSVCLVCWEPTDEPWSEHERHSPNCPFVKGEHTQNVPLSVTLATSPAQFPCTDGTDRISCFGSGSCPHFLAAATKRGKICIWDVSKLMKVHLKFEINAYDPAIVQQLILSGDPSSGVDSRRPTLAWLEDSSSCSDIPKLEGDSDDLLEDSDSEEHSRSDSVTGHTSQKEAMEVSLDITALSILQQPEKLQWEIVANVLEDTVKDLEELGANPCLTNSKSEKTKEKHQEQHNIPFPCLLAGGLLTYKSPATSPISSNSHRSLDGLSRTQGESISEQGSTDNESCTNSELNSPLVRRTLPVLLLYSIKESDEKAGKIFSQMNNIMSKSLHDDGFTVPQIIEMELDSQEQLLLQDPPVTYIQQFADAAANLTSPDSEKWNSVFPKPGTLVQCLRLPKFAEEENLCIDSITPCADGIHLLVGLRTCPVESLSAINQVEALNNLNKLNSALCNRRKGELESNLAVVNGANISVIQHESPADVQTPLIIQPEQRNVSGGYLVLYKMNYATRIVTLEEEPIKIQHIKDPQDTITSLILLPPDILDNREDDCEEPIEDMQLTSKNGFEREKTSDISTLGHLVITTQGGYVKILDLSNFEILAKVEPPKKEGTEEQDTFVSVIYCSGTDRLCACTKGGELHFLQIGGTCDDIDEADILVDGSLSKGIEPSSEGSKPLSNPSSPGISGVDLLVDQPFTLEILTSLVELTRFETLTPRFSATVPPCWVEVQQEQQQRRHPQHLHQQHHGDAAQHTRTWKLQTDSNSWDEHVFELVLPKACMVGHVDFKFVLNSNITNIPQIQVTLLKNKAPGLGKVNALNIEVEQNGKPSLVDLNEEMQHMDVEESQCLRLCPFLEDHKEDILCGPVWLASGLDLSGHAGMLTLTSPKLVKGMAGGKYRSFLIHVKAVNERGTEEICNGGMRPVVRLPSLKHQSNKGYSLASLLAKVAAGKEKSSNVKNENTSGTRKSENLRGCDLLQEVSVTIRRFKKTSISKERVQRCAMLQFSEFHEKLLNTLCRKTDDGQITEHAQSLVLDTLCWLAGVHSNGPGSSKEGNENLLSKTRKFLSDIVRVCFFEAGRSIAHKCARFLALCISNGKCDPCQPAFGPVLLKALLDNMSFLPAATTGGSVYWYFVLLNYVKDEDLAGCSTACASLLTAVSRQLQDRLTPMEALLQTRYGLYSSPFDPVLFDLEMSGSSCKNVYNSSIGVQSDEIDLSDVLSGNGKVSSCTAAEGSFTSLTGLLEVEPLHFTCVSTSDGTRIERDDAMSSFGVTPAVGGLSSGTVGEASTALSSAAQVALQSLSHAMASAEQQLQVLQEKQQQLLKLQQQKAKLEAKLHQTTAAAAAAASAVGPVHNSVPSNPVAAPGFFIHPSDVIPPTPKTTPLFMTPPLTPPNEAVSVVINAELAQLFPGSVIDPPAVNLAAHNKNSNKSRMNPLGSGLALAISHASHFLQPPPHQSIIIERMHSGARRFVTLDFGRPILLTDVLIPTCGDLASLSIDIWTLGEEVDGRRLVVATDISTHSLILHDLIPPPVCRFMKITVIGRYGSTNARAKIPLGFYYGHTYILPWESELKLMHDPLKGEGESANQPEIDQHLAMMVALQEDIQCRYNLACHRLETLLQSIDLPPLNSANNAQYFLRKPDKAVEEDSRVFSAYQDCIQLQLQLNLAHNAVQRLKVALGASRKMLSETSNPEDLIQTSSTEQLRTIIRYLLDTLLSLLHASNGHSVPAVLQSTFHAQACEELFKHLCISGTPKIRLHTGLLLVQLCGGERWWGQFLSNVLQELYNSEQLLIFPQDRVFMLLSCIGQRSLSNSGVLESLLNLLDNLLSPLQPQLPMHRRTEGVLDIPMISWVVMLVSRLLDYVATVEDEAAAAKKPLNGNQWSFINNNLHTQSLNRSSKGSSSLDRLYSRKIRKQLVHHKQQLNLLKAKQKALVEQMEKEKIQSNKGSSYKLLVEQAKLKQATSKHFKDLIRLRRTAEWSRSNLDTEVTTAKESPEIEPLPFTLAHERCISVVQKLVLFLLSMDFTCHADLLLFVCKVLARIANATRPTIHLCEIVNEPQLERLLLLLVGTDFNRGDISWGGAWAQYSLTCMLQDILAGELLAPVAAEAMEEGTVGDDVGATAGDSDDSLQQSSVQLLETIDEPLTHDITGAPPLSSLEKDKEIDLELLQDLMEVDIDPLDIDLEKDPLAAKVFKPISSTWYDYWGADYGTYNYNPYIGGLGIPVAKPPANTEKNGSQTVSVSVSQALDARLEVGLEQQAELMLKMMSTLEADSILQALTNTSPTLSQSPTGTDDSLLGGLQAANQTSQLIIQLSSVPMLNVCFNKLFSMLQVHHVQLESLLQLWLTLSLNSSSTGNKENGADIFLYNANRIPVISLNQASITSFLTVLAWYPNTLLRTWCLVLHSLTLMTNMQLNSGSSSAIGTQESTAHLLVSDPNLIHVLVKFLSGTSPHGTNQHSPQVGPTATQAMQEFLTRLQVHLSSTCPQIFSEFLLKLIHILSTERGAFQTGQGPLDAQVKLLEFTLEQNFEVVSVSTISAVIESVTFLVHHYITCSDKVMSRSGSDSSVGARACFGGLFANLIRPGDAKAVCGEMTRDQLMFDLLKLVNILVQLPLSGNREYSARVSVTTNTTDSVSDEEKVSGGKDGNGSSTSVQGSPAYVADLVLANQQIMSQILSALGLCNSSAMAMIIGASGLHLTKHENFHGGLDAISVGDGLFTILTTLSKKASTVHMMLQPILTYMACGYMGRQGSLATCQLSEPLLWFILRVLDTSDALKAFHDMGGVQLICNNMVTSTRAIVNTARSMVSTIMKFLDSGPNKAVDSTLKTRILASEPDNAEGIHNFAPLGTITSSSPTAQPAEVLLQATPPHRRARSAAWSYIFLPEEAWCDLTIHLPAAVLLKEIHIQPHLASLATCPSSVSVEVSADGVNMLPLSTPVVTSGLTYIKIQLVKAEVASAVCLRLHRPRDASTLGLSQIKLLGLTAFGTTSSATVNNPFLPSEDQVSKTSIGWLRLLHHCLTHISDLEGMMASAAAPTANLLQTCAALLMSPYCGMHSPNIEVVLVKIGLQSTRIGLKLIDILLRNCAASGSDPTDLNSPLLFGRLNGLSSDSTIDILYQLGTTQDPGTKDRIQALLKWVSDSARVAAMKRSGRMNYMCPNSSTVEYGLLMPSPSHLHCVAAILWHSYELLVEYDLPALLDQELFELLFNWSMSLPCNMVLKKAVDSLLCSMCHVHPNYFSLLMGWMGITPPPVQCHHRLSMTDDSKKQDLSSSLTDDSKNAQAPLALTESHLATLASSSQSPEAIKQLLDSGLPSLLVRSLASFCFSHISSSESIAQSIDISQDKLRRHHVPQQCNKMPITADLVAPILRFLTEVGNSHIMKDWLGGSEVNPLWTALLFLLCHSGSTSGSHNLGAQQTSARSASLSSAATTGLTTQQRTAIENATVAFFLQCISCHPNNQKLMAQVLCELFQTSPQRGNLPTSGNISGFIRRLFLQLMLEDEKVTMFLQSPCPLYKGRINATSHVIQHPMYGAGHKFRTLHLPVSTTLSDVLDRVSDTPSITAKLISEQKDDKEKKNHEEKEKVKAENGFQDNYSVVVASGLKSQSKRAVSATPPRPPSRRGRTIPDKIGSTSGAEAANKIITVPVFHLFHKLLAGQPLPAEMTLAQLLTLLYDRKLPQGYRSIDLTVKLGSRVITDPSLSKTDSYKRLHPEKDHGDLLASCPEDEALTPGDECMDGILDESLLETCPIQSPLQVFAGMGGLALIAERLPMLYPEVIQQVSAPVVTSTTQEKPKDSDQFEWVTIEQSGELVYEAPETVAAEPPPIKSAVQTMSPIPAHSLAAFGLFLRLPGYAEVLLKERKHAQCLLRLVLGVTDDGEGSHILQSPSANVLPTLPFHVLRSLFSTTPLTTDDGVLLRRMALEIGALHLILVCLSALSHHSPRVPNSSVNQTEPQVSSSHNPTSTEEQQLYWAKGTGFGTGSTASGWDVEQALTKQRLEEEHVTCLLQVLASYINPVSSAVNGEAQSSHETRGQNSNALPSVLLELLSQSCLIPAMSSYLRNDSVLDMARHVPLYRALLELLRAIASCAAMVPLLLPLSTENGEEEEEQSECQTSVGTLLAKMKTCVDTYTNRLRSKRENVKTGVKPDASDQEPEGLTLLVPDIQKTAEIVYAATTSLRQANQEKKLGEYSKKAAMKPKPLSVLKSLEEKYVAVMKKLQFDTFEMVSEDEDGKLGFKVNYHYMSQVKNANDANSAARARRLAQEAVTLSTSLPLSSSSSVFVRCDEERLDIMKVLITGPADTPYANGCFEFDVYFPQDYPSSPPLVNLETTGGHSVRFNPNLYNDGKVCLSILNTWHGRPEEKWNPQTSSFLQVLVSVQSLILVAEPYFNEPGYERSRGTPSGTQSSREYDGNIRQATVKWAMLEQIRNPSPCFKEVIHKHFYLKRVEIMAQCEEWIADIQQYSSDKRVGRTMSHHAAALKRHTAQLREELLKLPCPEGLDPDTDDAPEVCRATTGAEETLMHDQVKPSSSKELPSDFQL
UniProt P68036, sequence (whole entry, looked up): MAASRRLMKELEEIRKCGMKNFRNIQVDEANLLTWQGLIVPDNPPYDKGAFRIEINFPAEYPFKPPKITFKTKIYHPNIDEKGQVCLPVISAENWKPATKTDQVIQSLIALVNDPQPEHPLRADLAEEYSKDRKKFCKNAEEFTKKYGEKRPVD

Sample 1
Target: Fragile X messenger ribonucleoprotein 1, C-terminal low-complexity region (Fmr1, Mus musculus, UniProt P35922)
Technique: RNA Bind-n-Seq
Molecule type: RNA
Sample: in vitro
Tested at: 200 nM
Setting: whole 134-nt RNA, ends assumed
Together with: 150 mM LiCl
Relative to: input library
Direction: higher = stronger binding
Measurement: log2 enrichment
Each molecule: 7-deaza-guanosine replaces G
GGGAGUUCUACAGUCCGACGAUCCAAGUCCUGUGCUACACAUCGUAUGUACCGAAUCGGGUUUUGGUUUUGGUUUUGGAAAGUAUUAUGUUACGCCGUUCGGAUCUGCACUUCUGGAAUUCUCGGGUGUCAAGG: -1.66
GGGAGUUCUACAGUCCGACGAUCCCUCAAGUCCUGUGCUACACAUCGUAUGUACCGAAUCGGUGGUGGUUUUUGGAAAGUAUUAUGUUACGCCGUUCGGAUCUGCACUUCCAGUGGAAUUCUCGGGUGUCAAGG: 0.0431
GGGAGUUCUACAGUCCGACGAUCUGGCCCUGGUGGCAUGCGGGGAGGAAGAGGUGGCCUCAUGGAUCGUGGUGGUCCCGGUGGAAUGUUCAGAGGUGGUCGUGGUGGAGACAGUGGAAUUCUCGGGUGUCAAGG: -0.722
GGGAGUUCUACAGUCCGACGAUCUCCUGUGCUACACAUCGUAUGUACCGAAUCGGUUUUUUUGGUUUUUUUGGUUUUUUUGGAAAGUAUUAUGUUACGCCGUUCGGAUCUGCAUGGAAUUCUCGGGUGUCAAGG: -0.496
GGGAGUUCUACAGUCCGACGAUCCCUGUGCUACACAUCGUAUGUACCGAAUCGGGGAAAAAAGGGGAAAAAAGGAAAAAAGGGGAAAGUAUUAUGUUACGCCGUUCGGAUCUGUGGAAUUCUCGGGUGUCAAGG: 0.983
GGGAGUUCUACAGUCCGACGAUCUCCUGUGCUACACAUCGUAUGUACCGAAUCGGGAAAGGGUUUUUUUGGGAAAAAAAGGGAAAGUAUUAUGUUACGCCGUUCGGAUCUGCAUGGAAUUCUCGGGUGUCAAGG: -1.14
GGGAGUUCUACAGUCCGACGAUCUCCUGUGCUACACAUCGUAUGUACCGAAUCGGGAAAAAAAGGGUUUGGGAAAAAAAGGGAAAGUAUUAUGUUACGCCGUUCGGAUCUGCAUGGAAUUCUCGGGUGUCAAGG: -1.49
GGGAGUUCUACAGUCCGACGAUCUGGGAGGUGGAUUUUGUUUAUUUUUUUAGCUCAUUUCCAGGGGUGGGACUUUUUUUUUAAUAUGUGUCAUGAAUAAAGUUGUUUUUGAAAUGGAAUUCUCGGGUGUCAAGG: -0.514
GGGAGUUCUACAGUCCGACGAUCUGGGAGGUGGAUUUUGUUUAUUUUUUUAGCUCAUUUCCAGGGGUGGGAAUUUUUUUUUAAUAUGUGUCAUGAAGAAAGUUGUUUUUGAAAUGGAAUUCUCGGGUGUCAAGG: -0.00087
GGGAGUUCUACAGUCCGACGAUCUCCUGUGCUACACAUCGUAUGUACCGAAUCGGGUUUUUGGGUUUUUGGGUUUUUUUGGGAAAGUAUUAUGUUACGCCGUUCGGAUCUGCAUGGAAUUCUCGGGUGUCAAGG: -0.0579
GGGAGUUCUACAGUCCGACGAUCGCAGGAAGUAAAAACAAAUGGAAAUGCUUCGGAUAGUGGCAGGGGUGGGGGUUGCUAAGGAAAGGGUGGGAUGGAAAUGGGUAAAGAGUUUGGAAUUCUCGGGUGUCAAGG: 1.84

Sample 2
Target: CCNA2, cyclin fold, Cln2 fusion (human)
Technique: yeast growth competition, sequencing
Sample: yeast
Setting: strong parent motif
Relative to: not given
Direction: higher = stronger binding
Measurement: normalised enrichment score
Parent: PLK5 docking peptide (human); IFRKVGQRLLTQC
IFRKVAQRLLTQC [G6A]: 1.69
IFRKVGQRLLTQA [C13A]: 1.56
IFRKVGQRALTQC [L9A]: 1.21
IARKVGQRLLTQC [F2A]: 1.31
IFRAVGQRLLTQC [K4A]: 1.62
IFRKVGQALLTQC [R8A]: 1.49

Sample 3
Target: RNA binding protein fox-1 homolog 2, RRM domain, GST-SBP tag (RBFOX2, Homo sapiens, UniProt O43251-10, residues 100-194)
Technique: RNA Bind-n-Seq
Molecule type: RNA
Sample: in vitro
Tested at: 365 nM
Setting: natural RNA segment, single round, ends assumed
Relative to: no-protein control
Direction: higher = stronger binding
Measurement: RBNS enrichment (R)
Construct (chain): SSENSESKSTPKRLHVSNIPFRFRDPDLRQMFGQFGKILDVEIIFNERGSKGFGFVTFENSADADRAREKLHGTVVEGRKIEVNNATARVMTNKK
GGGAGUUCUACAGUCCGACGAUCAGCAUCUUCAAACUAAAGACUCCAAAAUGCUAACUCAGAAAGAAAGAAAAAACCCGUUUUCAAUUCUAAUGAAACAGCAACAACAUUUUUUUUAAUUAAAAAAAAAAUCAUGGAAUUCUCGGGUGCCAA: 0.76
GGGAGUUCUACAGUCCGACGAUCCAGUAAAGAUAUGGGCCAAGGAUAGUUUUUGUACCUGGGGCCUAUACCCAAUAACAAAAUCUGCCGGUUUGUCACAGUGGCUCACCUCCCAGAACUCUGAGCAAAGGGACUGGAAUUCUCGGGUGCCAA: 4.15
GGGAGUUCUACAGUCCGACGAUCGCCGUCUGACCAGUUGGCUGGCGGUGGUUCUGGUGGAGCACGAGGGAGCCCGGGUGGUGCCCUGAGCCUCGAGCUGCUCUCUGUCACUGUCUUGAAUCAGACUCAGAAAUUGGAAUUCUCGGGUGCCAA: 0.344
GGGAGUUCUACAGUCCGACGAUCAAGUCUUGGCAUCUUCCACGUAGUGUUGAGCCUGCAGGUGCACAGAAGUCAAGAACUGAGGUUUGGGAACCUCUGCCUAGAUUUCAGAGAAUGUAUGGAAAUGCAUGUAUUGGAAUUCUCGGGUGCCAA: 6.97
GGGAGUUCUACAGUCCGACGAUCGAAGCCUGGUUUCUGGGAGAACACUGCACAGCGAUUUCUUUCCCAGGAUUUACACAACUUUAAAGGGAAGAUAAAUGAACAUCAGAUUUCUAGGUAUAGAACUAUGUUAUUGGAAUUCUCGGGUGCCAA: 0.424
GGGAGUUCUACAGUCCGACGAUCUAUAAAGAUGGUAGUAAGUCAAUACAUUUAUCCUGAUCUGUGUAUUAUUUGUUCACAAAUUCAAGAAGCUUAAAGGUCGUAAAUAUCAGUAUCUCAUAAGGUAAACCAAUUGGAAUUCUCGGGUGCCAA: 0.488
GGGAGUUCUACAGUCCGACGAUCGAAAUCCCAUGUACAAAUAAAAUUCUAUGUCUGAAAGAUUCUUCUGUUUGAACUUAAGAAGAAUAAACUACACUUUACUUUAUGUGCAGAAAUGAGACAUUCUGACAAUAUGGAAUUCUCGGGUGCCAA: 1.86
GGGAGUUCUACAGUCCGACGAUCCUGUUAUCUCCUCUCCUAAGGAGAUGAAGACCUAACAGGGGCACUGCGGCUGGGCUGCUUUAGGAGACCAAGUGGCAAGAAAGCUCACAUUUUUUGAGUUCAAAUGCUACUGGAAUUCUCGGGUGCCAA: 0.264
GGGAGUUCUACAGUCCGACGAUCGAAAUAAAAGCAAAGCACCUGUAUGGCUGCCACUCUUUUUGACCCUUGCUUUCCUCCCUCCUCUUUUUCCCCCAGCCUUCCCCUUUCCUUUUUCCUACCUCUCUCUGUUCUGGAAUUCUCGGGUGCCAA: 1.39
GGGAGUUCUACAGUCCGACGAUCACUGCUCUCCUCAGGGACUGGGACAAGGUGCUGCCGCCUGCCCACAGUUUUCCCAAGGAACACGUACAAGAUCAUUUAGCCACUACUCUGCUGCCUCUCAGCCUCUGCUGUGGAAUUCUCGGGUGCCAA: 0.524
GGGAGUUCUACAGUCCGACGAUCGUUUGGCUCAAGAGCCUUUAUUUGGCCUGUUUGCCUUAAUUCUAUUACAUAGCAUACCUGUAUUUCAGUUAAAAACCAGACCCUAUGGUGUUGGGUAGACACUGACAGUUUGGAAUUCUCGGGUGCCAA: 0.717
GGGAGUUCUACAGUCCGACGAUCGAUCUUUGAACUCCUGAGUACAGACUGCGGGUGUGUGCUACCAUGCUUUAUGUGGCCCUGGGUUCAAACACAGCCCUUCAUAUGUAUAUAGCCAAACACUCUACAACUGAUGGAAUUCUCGGGUGCCAA: 0.408

Sample 4
Sequence: B1 (RNF32 RING domain)
Technique: yeast two-hybrid
Sample: yeast
Setting: mostly zero background
Relative to: not given
Direction: higher = stronger interaction
Measurement: lacZ reporter activity
B1: RNF32 RING domain (UniProt Q9H0A6); chain SLLQGDSVQPCPICKEEFELRPQVLLSCSHVFHKACLQAFEKFTNKKTCPLCRKNQYQTRVIH
BIRC6 UBC core domain (UniProt Q9NR09): 0
UBE2R2 UBC core domain (UniProt Q712K3): 0
UBE2Z UBC core domain (UniProt Q9H832): 0
UBE2J1 UBC core domain (UniProt Q9Y385): 0
UBE2J2 UBC core domain (UniProt Q8N2K1): 0
UBE2Q1 UBC core domain (UniProt Q7Z7E8): 0
UBE2D1 UBC core domain (UniProt P51668): 0
UBE2B UBC core domain (UniProt P63146): 0
UBE2L3 UBC core domain (UniProt P68036): 0

Some of these lines once more (sample 3):
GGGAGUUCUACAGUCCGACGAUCGAAAUAAAAGCAAAGCACCUGUAUGGCUGCCACUCUUUUUGACCCUUGCUUUCCUCCCUCCUCUUUUUCCCCCAGCCUUCCCCUUUCCUUUUUCCUACCUCUCUCUGUUCUGGAAUUCUCGGGUGCCAA: 1.39
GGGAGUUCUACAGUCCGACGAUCGUUUGGCUCAAGAGCCUUUAUUUGGCCUGUUUGCCUUAAUUCUAUUACAUAGCAUACCUGUAUUUCAGUUAAAAACCAGACCCUAUGGUGUUGGGUAGACACUGACAGUUUGGAAUUCUCGGGUGCCAA: 0.717
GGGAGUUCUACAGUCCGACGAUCGAAAUCCCAUGUACAAAUAAAAUUCUAUGUCUGAAAGAUUCUUCUGUUUGAACUUAAGAAGAAUAAACUACACUUUACUUUAUGUGCAGAAAUGAGACAUUCUGACAAUAUGGAAUUCUCGGGUGCCAA: 1.86
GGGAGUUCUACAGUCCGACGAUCAGCAUCUUCAAACUAAAGACUCCAAAAUGCUAACUCAGAAAGAAAGAAAAAACCCGUUUUCAAUUCUAAUGAAACAGCAACAACAUUUUUUUUAAUUAAAAAAAAAAUCAUGGAAUUCUCGGGUGCCAA: 0.76
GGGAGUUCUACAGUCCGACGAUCGCCGUCUGACCAGUUGGCUGGCGGUGGUUCUGGUGGAGCACGAGGGAGCCCGGGUGGUGCCCUGAGCCUCGAGCUGCUCUCUGUCACUGUCUUGAAUCAGACUCAGAAAUUGGAAUUCUCGGGUGCCAA: 0.344
